Experimental data collected from several papers.
Lines come from different studies, so protocols differ.
Sample: plasma

CC(OC1OC(C(=O)O)C(O)C(O)C1O)c1nc(-c2ccc3c(c2)CCC3NC(=O)c2cnn(C)c2)no1 (stereo not drawn)
tmax (human; oral, 20 mg of aficamten, radioprofiling): 24 h

CN1CCC[C@]1(C)/C=C/S(=O)(=O)NC(=O)Nc1c2c(cc3c1CCC3)CCC2
Tmax after second dose, median (human; oral, 12.5 mg twice daily, day 14, multiple ascending dose): 1.5 h

CC[C@H](C)[C@H](NC(=O)[C@H](CC(C)C)NC(=O)[C@H](Cc1c[nH]c2ccccc12)NC(=O)[C@H](C)NC(=O)[C@@H](NC(=O)[C@H](Cc1ccccc1)NC(=O)[C@H](CC(=O)O)NC(=O)[C@H](CCCNC(=N)N)NC(=O)[C@H](C)NC(=O)[C@H](C)NC(=O)[C@H](CC(C)C)NC(=O)[C@H](C)NC(=O)[C@H](CC(=O)O)NC(=O)[C@H](CC(C)C)NC(=O)[C@@H](NC(=O)[C@@H](NC(=O)[C@H](C)NC(=O)[C@H](CC(C)C)NC(=O)[C@H](CCC(=O)O)NC(=O)[C@H](CO)NC(=O)[C@H](CO)NC(=O)[C@H](Cc1ccccc1)NC(=O)[C@@H](NC(=O)CNC(=O)[C@H](CCC(=O)O)NC(=O)CNC(=O)[C@@H](N)Cc1c[nH]cn1)[C@@H](C)O)[C@@H](C)O)[C@@H](C)CC)[C@@H](C)CC)C(=O)N[C@@H](C)C(=O)N[C@H](C(=O)N[C@@H](CCCCN)C(=O)N[C@H](C(=O)N[C@H](C(=O)N[C@@H](CC(=O)O)C(=O)N[C@@H](CCCCN)C(=O)O)[C@@H](C)O)[C@@H](C)CC)[C@@H](C)O
tmax (healthy human subjects; subcutaneous, 5 mg once weekly, day 36 after 6 doses, steady state, median): 24 h

O=C(CCc1ccc(CNC(C(=O)OC2CCCC2)C2CCCCC2)cn1)NO (stereo not drawn)
Tmax (human; oral, 10 mg, single dose, median): 0.5 h

CC[C@H](C)[C@H](NC(=O)[C@H](CC(C)C)NC(=O)[C@H](Cc1c[nH]c2ccccc12)NC(=O)[C@H](C)NC(=O)[C@@H](NC(=O)[C@H](Cc1ccccc1)NC(=O)[C@H](CC(=O)O)NC(=O)[C@H](CCCNC(=N)N)NC(=O)[C@H](C)NC(=O)[C@H](C)NC(=O)[C@H](CC(C)C)NC(=O)[C@H](C)NC(=O)[C@H](CC(=O)O)NC(=O)[C@H](CC(C)C)NC(=O)[C@@H](NC(=O)[C@@H](NC(=O)[C@H](C)NC(=O)[C@H](CC(C)C)NC(=O)[C@H](CCC(=O)O)NC(=O)[C@H](CO)NC(=O)[C@H](CO)NC(=O)[C@H](Cc1ccccc1)NC(=O)[C@@H](NC(=O)CNC(=O)[C@H](CCC(=O)O)NC(=O)CNC(=O)[C@@H](N)Cc1cnc[nH]1)[C@@H](C)O)[C@@H](C)O)[C@@H](C)CC)[C@@H](C)CC)C(=O)N[C@@H](C)C(=O)N[C@H](C(=O)N[C@@H](CCCCN)C(=O)N[C@H](C(=O)N[C@H](C(=O)N[C@@H](CC(=O)O)C(=O)N[C@@H](CCCCN)C(=O)N[C@@H](CCCCN)C(=O)N[C@@H](CCCCN)C(=O)N[C@@H](CCCCN)C(=O)N[C@@H](CCCCN)C(=O)N[C@@H](CCCCN)C(N)=O)[C@@H](C)O)[C@@H](C)CC)[C@@H](C)O
tmax (healthy humans; subcutaneous, 5 mg once weekly, 6 doses, day 36, median): 12 h

CCCOc1ccc(S(N)(=O)=O)cc1-c1nc2c(CCC)nn(C)c2c(=O)[nH]1
Tmax (median) (healthy male humans; oral, 200 mg udenafil, together with: dapoxetine 60 mg): 3.5 h

CC[C@H](C)[C@H](NC(=O)[C@H](CC(C)C)NC(=O)[C@H](Cc1c[nH]c2ccccc12)NC(=O)[C@H](C)NC(=O)[C@@H](NC(=O)[C@H](Cc1ccccc1)NC(=O)[C@H](CC(=O)O)NC(=O)[C@H](CCCNC(=N)N)NC(=O)[C@H](C)NC(=O)[C@H](C)NC(=O)[C@H](CC(C)C)NC(=O)[C@H](C)NC(=O)[C@H](CC(=O)O)NC(=O)[C@H](CC(C)C)NC(=O)[C@@H](NC(=O)[C@@H](NC(=O)[C@H](C)NC(=O)[C@H](CC(C)C)NC(=O)[C@H](CCC(=O)O)NC(=O)[C@H](CO)NC(=O)[C@H](CO)NC(=O)[C@H](Cc1ccccc1)NC(=O)[C@@H](NC(=O)CNC(=O)[C@H](CCC(=O)O)NC(=O)CNC(=O)[C@@H](N)Cc1c[nH]cn1)[C@@H](C)O)[C@@H](C)O)[C@@H](C)CC)[C@@H](C)CC)C(=O)N[C@@H](C)C(=O)N[C@H](C(=O)N[C@@H](CCCCN)C(=O)N[C@H](C(=O)N[C@H](C(=O)N[C@@H](CC(=O)O)C(=O)N[C@@H](CCCCN)C(=O)N[C@@H](CCCCN)C(=O)O)[C@@H](C)O)[C@@H](C)CC)[C@@H](C)O
tmax (healthy human subjects; subcutaneous, 10 mg once weekly, day 36 after 6 doses, steady state, median): 8 h

CCc1cc(Nc2nc(-c3ccc(-n4cnc(C)c4)c(F)c3)cs2)c(C)cc1C
Tmax (human, both sexes; oral, 200 mg, day 1, multiple dose, geometric mean): 4.1 h

CCc1c2c(nc3ccc(O)cc13)-c1cc3c(c(=O)n1C2)COC(=O)[C@]3(O)CC
Tmax (human patients; intravenous, 3 mg/m^2 of parent drug): 0.25 h

O=C(CCc1ccc(CNC(C(=O)O)C2CCCCC2)cn1)NO (stereo not drawn)
Tmax (human; oral, 20 mg once daily, day 1, median): 1 h

Cn1c(=O)oc2ccc(-c3ccc(CC(C#N)NC(=O)C4CNCCCO4)c(F)c3)cc21 (stereo not drawn)
Tmax (human volunteers; 60 mg single dose, fasted, median): 0.75 h

Cc1c(Cl)c(C)[n+]([O-])c(Cl)c1-c1no[14c](-c2cc(O)c(O)c([N+](=O)[O-])c2)n1
tmax (item: total radioactivity; human, male; oral, 100 mg): 2 h

A few entries again:
O=C(CCc1ccc(CNC(C(=O)O)C2CCCCC2)cn1)NO (stereo not drawn)
Tmax (human; oral, 20 mg once daily, day 1, median): 1 h

CC[C@H](C)[C@H](NC(=O)[C@H](CC(C)C)NC(=O)[C@H](Cc1c[nH]c2ccccc12)NC(=O)[C@H](C)NC(=O)[C@@H](NC(=O)[C@H](Cc1ccccc1)NC(=O)[C@H](CC(=O)O)NC(=O)[C@H](CCCNC(=N)N)NC(=O)[C@H](C)NC(=O)[C@H](C)NC(=O)[C@H](CC(C)C)NC(=O)[C@H](C)NC(=O)[C@H](CC(=O)O)NC(=O)[C@H](CC(C)C)NC(=O)[C@@H](NC(=O)[C@@H](NC(=O)[C@H](C)NC(=O)[C@H](CC(C)C)NC(=O)[C@H](CCC(=O)O)NC(=O)[C@H](CO)NC(=O)[C@H](CO)NC(=O)[C@H](Cc1ccccc1)NC(=O)[C@@H](NC(=O)CNC(=O)[C@H](CCC(=O)O)NC(=O)CNC(=O)[C@@H](N)Cc1c[nH]cn1)[C@@H](C)O)[C@@H](C)O)[C@@H](C)CC)[C@@H](C)CC)C(=O)N[C@@H](C)C(=O)N[C@H](C(=O)N[C@@H](CCCCN)C(=O)N[C@H](C(=O)N[C@H](C(=O)N[C@@H](CC(=O)O)C(=O)N[C@@H](CCCCN)C(=O)O)[C@@H](C)O)[C@@H](C)CC)[C@@H](C)O
tmax (healthy human subjects; subcutaneous, 5 mg once weekly, day 36 after 6 doses, steady state, median): 24 h
